# Assay results collected from several papers.
# Parts stem from different laboratories: compare values within a part only. Positions count from the first letter of the parent shown.

# Set 1
# Target: Interferon regulatory factor 3, full length, phosphomimetic (IRF3, Homo sapiens, UniProt Q14653, residues 1-427, S386D/S396D/S398D/S402D/T404D/S405D)
# Technique: protein-binding microarray
# Form: double-stranded DNA, one strand shown
# Matrix: in vitro
# Concentration: 2540 nM top
# Notes: 60-bp whole probe
# Added: salmon DNA 0.4 mg/ml
# Relative to: random background probes
# Reading: higher = stronger binding
# All sequences stand within: GCCTAGCAC … GTCTTGATTCGCTTGACGCTGCTG
# Construct (chain): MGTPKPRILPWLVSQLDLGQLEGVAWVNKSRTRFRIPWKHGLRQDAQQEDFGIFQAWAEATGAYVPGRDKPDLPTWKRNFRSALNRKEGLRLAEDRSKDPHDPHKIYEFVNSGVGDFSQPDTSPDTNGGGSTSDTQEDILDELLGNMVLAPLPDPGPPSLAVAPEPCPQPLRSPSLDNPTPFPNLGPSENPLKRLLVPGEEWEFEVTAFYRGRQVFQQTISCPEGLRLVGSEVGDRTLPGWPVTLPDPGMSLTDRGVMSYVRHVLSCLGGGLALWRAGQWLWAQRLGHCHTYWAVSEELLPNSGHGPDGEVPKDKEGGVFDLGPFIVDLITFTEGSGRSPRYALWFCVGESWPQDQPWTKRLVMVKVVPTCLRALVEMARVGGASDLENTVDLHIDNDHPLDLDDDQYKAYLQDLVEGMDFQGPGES
Strand,fitted relative affinity
GAGGGTTTCCTACTGCTGACGTGCTAG,3.27 z-score
GTAGGTCTCCTTATCCTTTAGTGCTAG,3.09 z-score
TTAGGAGTGCTTCTCCTTTAGTGCTAG,-0.0511 z-score
TCATTACTTTCTATCTCACTGTGCTAG,3.13 z-score
TCAGATTTACAAACTGTGACTGTGCTA,0.467 z-score
TCAAGCTTCCATTTTCTACTGTGCTAG,1.59 z-score
GACGGACTGCCACTGCTGACGTGCTAG,-0.866 z-score
TCAACTCCCCAACTCGCACTGTGCTAG,0.607 z-score
GACGGTTTCCTTCTGCTGACGTGCTAG,6.87 z-score
GTGGAAATCAGTATGTTCCCGTGCTAG,0.129 z-score
GAAGGACTGCTTATCCTGACGTGCTAG,-0.334 z-score
GACGCACTGCTTATCCTGACGTGCTAG,-0.221 z-score
TTAGGTCTGCTTTTCCTTTAGTGCTAG,0.924 z-score
GACGGTGTCGGTTTCGGGACGTGCTAG,5.52 z-score
TCAAGTATTTATCTGCAACTGTGCTAG,-0.18 z-score
TCAAATATATATTCATAACTGTGCTAG,0.368 z-score
TGCTATACCACTCTTGCTTTGTGCTAG,-0.114 z-score
GAAAACAAAGAAAATACAAAGTGCTAG,0.626 z-score

# Set 2
# Target: Ras GTPase-activating protein-binding protein 1, full length (G3BP1, Homo sapiens, UniProt Q13283)
# UniProt Q13283, sequence (whole entry, looked up): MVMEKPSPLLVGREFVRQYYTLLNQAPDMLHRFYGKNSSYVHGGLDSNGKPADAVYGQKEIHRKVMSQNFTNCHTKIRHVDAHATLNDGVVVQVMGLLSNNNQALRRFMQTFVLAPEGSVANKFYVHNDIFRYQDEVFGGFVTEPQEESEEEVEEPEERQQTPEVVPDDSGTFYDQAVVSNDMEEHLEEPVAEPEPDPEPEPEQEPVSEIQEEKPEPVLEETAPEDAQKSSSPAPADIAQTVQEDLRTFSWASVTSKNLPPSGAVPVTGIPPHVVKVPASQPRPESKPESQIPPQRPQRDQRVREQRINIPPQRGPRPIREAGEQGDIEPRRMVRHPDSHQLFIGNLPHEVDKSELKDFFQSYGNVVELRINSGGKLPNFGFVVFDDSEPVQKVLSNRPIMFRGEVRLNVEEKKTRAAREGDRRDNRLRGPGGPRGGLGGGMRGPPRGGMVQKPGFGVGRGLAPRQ
# Technique: RNA Bind-n-Seq
# Form: RNA
# Matrix: in vitro
# Concentration: 200 nM
# Notes: whole 134-nt RNA, ends assumed
# Added: 150 mM LiCl
# Relative to: input library
# Reading: higher = stronger binding
# All molecules: 7-deaza-guanosine replaces G
Strand,log2 enrichment
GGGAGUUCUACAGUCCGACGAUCCUUUGUAAUGGGAACUGCCUCUUUCCUGUUGUUGUUAAUGAAAAUGUCAGAAACCAGUUAUGUGAAUGAUCUCUCUGAAUCCUAAGGGCUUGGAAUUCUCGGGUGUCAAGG,-0.55
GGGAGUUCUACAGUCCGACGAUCUGGGAGGUGGAUUUUGUUUAUUUUUUUAGCCCAUUUCCAGGGGUGGGAAUUUUUUUUUAAUAUGUGUCAUGAAUAAAGUUGUUUUUGAAAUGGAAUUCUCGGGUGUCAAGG,-0.32
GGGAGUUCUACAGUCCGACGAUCUGGCCCUGUUGGCAUGCGGGGAGGAAGAGGUGGCCUCAUGGAUCGUGGUGGUCCCGGUGGAAUGUUCAGAGGUGGCCGUGGUGGAGACAGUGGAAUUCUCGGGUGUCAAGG,0.385
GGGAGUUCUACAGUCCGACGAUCACCAUGCAGGUGGGCAUCUUUGGGAAGUGGGGCAAGGGGGGGCUAGGGAGGGGGGUAACACUUUGGGAACAGGUGGUCCCAGGUCGUUUCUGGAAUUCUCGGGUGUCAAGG,-0.0867
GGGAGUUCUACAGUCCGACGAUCUGUGCUACACAUCGUAUGUACCGAAUCGGGGAAAAAAAGGGGAAAAAAAGGGGAAAAAGGGGAAAGUAUUAUGUUACGCCGUUCGGAUCUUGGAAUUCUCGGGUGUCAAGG,0.675
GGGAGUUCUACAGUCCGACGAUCUAACUUUAGAGGAGGAUCUGAUGGAUAUGGCAGUGGACGUGGAUUUGGGGAUGGCUAUAAUGGGUAUGGAGGAGGACCCGGAGGUGGCAAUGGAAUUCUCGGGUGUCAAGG,-0.255
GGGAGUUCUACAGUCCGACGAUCAGUCCUGUGCUACACAUCGUAUGUACCGAAUCGGGAAAAGGGAAAAGGGGAAAAGGGAAAGUAUUAUGUUACGCCGUUCGGAUCUGCACUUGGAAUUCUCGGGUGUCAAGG,-0.407
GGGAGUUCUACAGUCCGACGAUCAAAAUGCAGGUGGGCAUCUUUGGGAAGUGGGGCAAGGGGGGGAUAGGGAGGGGGGUAACACUUUGGGAACAGGUGGUCCCAGGUCGUUUCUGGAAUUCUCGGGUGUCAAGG,0.311
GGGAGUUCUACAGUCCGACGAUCCUCAAGUCCUGUGCUACACAUCGUAUGUACCGAAUCGGCCGGGCCGGGGCCGGAAAGUAUUAUGUUACGCCGUUCGGAUCUGCACUUCCAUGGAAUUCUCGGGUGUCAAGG,0.613
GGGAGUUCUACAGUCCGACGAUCUGUGGCCGCAGGACGAGUACAUCGUGGAGUACUCACUAGAGUAUGGCUUCCUUCGCCUGUCGCAGGCCACCCGCCAGCGCCUGAGCAUCCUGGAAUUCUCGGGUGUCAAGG,0.928
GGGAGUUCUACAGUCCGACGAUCUAACUUUAGAGGAGGAUCUGAUGGAUAUGGCAGUGGACGUGGAUUUGGGGAUGGCUAUAAUGGGUAUGGAGGAGGACCUGGUGGUGGCAAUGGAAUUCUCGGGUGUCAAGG,-0.152

# Set 3
# Target: Histone acetyltransferase KAT6A, winged helix 1, GST fusion (KAT6A, Homo sapiens, UniProt Q92794, residues 1-85)
# Technique: protein binding microarray
# Form: double-stranded DNA, one strand shown
# Matrix: in vitro
# Concentration: not given
# Notes: 8-mer, flanks averaged, mean of 2 arrays, mostly near background
# Relative to: not given
# Reading: higher = stronger binding
# Target sequence (chain): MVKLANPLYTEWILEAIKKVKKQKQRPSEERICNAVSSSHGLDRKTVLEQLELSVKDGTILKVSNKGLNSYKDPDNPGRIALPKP
Strand,E-score
GGAATCCA,-0.0911
CCTGCGGA,0.00339
CGTATACG,0.281
CCGGAGAC,0.192
AATGGTAG,-0.185
AGGCCTAC,-0.172
CATCGATC,-0.11
CATTTGAG,-0.165
AGACTCTC,-0.152
AAGGGTCT,-0.03
AGAGGGCG,0.259
ACGTCCCC,0.0188
CTCGCTGA,0.0609
CATGCCAA,-0.279
CCCGGTTA,0.299
CTCTGCAA,-0.175
ACCTGACC,-0.0571
GTCTGACA,0.00153
CGTTACCC,0.146
CCTGGTGA,-0.202

# Set 4
# Target: UBE2L3 UBC core domain (UniProt P68036)
# UniProt P68036, sequence (whole entry, looked up): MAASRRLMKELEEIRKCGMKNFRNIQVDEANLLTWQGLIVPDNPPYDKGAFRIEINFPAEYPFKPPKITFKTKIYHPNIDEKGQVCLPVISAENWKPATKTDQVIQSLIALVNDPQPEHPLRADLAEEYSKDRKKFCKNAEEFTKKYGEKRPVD
# Technique: yeast two-hybrid
# Matrix: yeast
# Notes: mostly zero background
# Relative to: not given
# Reading: higher = stronger interaction
# B1: TRIM41 RING domain (UniProt Q8WV44); chain PVQTLQEEAVCAICLDYFTDPVSIGCGHNFCRVCVTQLWGGEDEEDRDELDREEEEEDGEEE
# B2: BFAR RING domain (UniProt Q9NZS9); chain GPQISVSEFSCHCCYDILVNPTTLNCGHSFCRHCLALWWASSKKTECPECREKWEGFPKVS
# B3: MID2 RING domain (UniProt Q9UJV3); chain KMETLESELTCPICLELFEDPLLLPCAHSLCFSCAHRILVSSCSSGESIEPITAFQCPTCRYVISLNHRGL
# B4: ZNRF4 RING domain (UniProt Q8WWF5); chain VRTFTWHNDLCAICLDEYEEGDQLKILPCSHTYHCKCIDPWFSQAPRRSCPVCKQSVAATEDSF
# B5: HLTF RING domain (UniProt Q14527); chain LILSSGSDEECAICLDSLTVPVITHCAHVFCKPCICQVIQNEQPHAKCPLCRNDIHEDNLLE
# B6: NFX1 RING domain (UniProt Q12986); chain IEQLTTEKYECMVCCELVRVTAPVWSCQSCYHVFHLNCIKKWARSPASQADGQSGWRCPACQNVSAHVPNTY
# B7: VPS8 RING domain (UniProt Q8N3P4); chain TRGLNPKQDYCSICLQQYKRRQEMADEIIVFSCGHLYHSFCLQNKECTVEFEGQTRWTCYKCSSSNKVGKLSE
# B8: MARCHF1 RING domain (UniProt Q8TCQ1); chain TAPRSQSRLSVCPSTQDICRICHCEGDEESPLITPCRCTGTLRFVHQSCLHQWIKSSDTRCCELCKYDFIMETKLKPLRKWE
Sequence,lacZ reporter activity
B1 (TRIM41 RING domain),0
B2 (BFAR RING domain),0
B3 (MID2 RING domain),0
B4 (ZNRF4 RING domain),0
B5 (HLTF RING domain),0
ASPKIFQKTKCSICNSALELPSVHFLCGHSFHQHCFESYSESDADCPTCLPENRKVMDMI (VPS11 RING domain (UniProt Q9H270)),0
B6 (NFX1 RING domain),0
B7 (VPS8 RING domain),0
LEALSSDFLACKICLEQLRAPKTLPCLHTYCQDCLAQLADGGRVRCPECRETVPVPPEGV (TRIM56 RING domain (UniProt Q9BRZ2)),0
B8 (MARCHF1 RING domain),0

# Set 5
# Target: CCNF, cyclin fold, Cln2 fusion (human)
# Technique: yeast growth competition, sequencing
# Matrix: yeast
# Notes: weak parent motif
# Relative to: not given
# Reading: higher = stronger binding
# Starting sequence: MASTL docking peptide (human); PMIAKNLMCELDE
Substitution,normalised enrichment score
L7Y,-0.191
L7T,-0.69
I3T,0.0229
E10A,0.292
N6M,-0.00832
N6C,0.263
I3Y,-0.0228
K5V,-0.284
N6W,0.456

# For quick reference, copied from above (set 1):
Strand,fitted relative affinity
GACGGACTGCCACTGCTGACGTGCTAG,-0.866 z-score
TCAAATATATATTCATAACTGTGCTAG,0.368 z-score
GACGGTTTCCTTCTGCTGACGTGCTAG,6.87 z-score
TCAAGTATTTATCTGCAACTGTGCTAG,-0.18 z-score
TCAACTCCCCAACTCGCACTGTGCTAG,0.607 z-score
TCAAGCTTCCATTTTCTACTGTGCTAG,1.59 z-score
TTAGGTCTGCTTTTCCTTTAGTGCTAG,0.924 z-score
GAGGGTTTCCTACTGCTGACGTGCTAG,3.27 z-score
TCAGATTTACAAACTGTGACTGTGCTA,0.467 z-score
